Published values collected from several papers.
Each numbered part is a random draw from the data of one study; scales do not carry over between parts. “And” joins repeats or separate records; there may be more than shown.
Chain of UniProt P41595 (whole entry, looked up): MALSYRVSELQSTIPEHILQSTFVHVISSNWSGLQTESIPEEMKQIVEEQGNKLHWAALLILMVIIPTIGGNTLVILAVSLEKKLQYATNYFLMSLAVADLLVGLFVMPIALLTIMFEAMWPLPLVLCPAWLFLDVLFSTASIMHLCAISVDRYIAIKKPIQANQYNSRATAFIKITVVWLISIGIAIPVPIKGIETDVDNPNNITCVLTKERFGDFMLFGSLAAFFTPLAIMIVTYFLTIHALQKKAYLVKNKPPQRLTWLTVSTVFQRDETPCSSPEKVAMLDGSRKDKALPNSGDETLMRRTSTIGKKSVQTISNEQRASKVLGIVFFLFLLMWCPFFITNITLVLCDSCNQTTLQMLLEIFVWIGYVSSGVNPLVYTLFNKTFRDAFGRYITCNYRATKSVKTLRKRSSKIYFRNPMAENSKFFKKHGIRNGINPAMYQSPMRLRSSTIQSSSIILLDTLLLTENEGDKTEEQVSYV
Chain of UniProt P47898 (whole entry, looked up): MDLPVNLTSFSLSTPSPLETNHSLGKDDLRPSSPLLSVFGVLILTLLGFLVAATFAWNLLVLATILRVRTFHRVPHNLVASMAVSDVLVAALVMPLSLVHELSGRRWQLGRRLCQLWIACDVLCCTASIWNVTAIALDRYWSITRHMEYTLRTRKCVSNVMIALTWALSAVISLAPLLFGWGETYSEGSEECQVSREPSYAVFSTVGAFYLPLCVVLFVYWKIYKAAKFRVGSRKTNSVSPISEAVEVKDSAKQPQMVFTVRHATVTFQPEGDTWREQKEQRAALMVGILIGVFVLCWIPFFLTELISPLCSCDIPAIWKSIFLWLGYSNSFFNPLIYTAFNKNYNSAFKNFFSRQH
Chain of UniProt P00519 (whole entry, unmodified, looked up): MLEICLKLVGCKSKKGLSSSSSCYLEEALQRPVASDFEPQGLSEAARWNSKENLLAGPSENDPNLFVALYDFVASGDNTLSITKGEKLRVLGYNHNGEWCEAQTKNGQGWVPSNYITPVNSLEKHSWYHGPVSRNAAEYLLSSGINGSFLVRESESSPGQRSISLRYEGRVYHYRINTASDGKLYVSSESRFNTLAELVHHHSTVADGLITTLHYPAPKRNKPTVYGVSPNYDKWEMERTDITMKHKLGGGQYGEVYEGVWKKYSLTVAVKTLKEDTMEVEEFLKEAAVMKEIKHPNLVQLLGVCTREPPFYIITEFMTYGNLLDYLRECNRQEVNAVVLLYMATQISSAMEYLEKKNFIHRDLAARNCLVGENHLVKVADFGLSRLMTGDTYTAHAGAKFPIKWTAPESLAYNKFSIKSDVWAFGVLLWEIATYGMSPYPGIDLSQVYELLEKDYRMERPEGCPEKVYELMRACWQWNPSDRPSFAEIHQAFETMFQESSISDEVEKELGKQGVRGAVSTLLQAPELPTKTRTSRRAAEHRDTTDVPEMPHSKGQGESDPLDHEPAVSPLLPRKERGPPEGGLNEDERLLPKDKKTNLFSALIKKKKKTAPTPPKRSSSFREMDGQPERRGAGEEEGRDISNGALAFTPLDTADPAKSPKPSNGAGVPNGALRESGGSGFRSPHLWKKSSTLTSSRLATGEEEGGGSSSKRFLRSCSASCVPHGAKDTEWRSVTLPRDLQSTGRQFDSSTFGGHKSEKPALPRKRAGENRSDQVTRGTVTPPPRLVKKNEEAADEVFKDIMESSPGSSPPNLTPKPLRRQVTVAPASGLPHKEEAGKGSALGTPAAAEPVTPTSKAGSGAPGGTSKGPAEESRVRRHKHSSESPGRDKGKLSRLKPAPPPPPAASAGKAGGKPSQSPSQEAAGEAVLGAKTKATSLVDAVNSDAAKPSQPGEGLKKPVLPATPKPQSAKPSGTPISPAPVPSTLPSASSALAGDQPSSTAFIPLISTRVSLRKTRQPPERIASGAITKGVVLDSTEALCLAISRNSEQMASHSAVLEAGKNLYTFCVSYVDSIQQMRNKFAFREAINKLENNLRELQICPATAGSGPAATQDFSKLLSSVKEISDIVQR

Study 1
SMILES: CC(C)C(=O)N1CCN(c2nc(OC[C@@H]3CCCN3C)nc3c2CCN(c2cccc4cccc(Cl)c24)C3)C[C@@H]1CC#N
Effect on: binding
Mode: competitor
Technique: NanoBRET
Cells: HEK293
KRAS G13D: GTPase KRas (KRAS, Homo sapiens, UniProt P01116, G13D)
KRAS Q61R: GTPase KRas (KRAS, Homo sapiens, UniProt P01116, Q61R)
target | conditions | normalized BRET
KRAS G13D | 412 nM | 96.4% and 105% and 94.4%
GTPase KRas (KRAS, Homo sapiens, UniProt P01116, G12D) | 137 nM | 87.3% and 98.8% and 103%
KRAS G13D | 5.08 nM | 98.2% and 98.6% and 109%
KRAS G13D | 45.7 nM | 107% and 94.6% and 96.8%
KRAS G13D | 137 nM | 94.5% and 103% and 96.8%
KRAS Q61R | 137 nM | 103% and 92% and 106%
KRAS Q61R | 15.2 nM | 108% and 87.2% and 99.9%
KRAS G13D | 1.69 nM | 104% and 99.3% and 101%

Study 2
Species: human
Medium: microsomes or S9
Concentration: 2 µM
Time: 0.5 h
SMILES | remaining compound
Oc1c2ccc(-c3ccco3)nc2nn1-c1ccccc1 | 85.5%
CC(C)C[C@H](C(=O)NOC(C)(C)C)N1C(=O)Nc2cc(Cl)cc(Cl)c2S1(=O)=O | 45.8%
O=S(=O)(NCc1ccncc1O[C@H]1CCNC1)c1ccco1 | 80.3%
CCOC(=O)c1cc2n(c1)CCCc1c(N)n[nH]c1-2 | 68.8%
CC1Nc2ncnc(NC(C)c3cc4ccccc4nc3-c3ccccc3)c2NC1=O (stereo not shown) | 21.8%
CC(c1ccc(F)cc1)N(C)C(=O)c1ccc(-c2ccncc2)[nH]c1=O (stereo not shown) | 86.9%
Cc1cccc(C)c1NC(=O)C1(NC(=O)c2cc[nH]n2)CCCCC1 | 88.5%
COc1cccc(CN(c2nc3nc(C)c(Cl)c(C)n3n2)S(=O)(=O)c2ccc(Cl)cc2)c1 | 1.52%
COc1ccc(Cc2nc(-c3ccc(S(C)(=O)=O)cc3)c(C)s2)cc1 | 51.9%
O=C(NCc1nc(-c2ccc[nH]c2=O)no1)c1ccc2[nH]c(=O)oc2c1 | 78.5%
COC(=O)CN(c1ccccc1OC)S(C)(=O)=O | 13.5%
C(=C\c1ccc2ccnc(N3CCOCC3)c2c1)/c1ccncc1 | 28.8%

Study 3
Target: Dual specificity tyrosine-phosphorylation-regulated kinase 1A (DYRK1A, Homo sapiens, UniProt Q13627)
Effect on: enzyme activity
Mode: inhibitor
Concentration: 0.5 µM
Reference: control
Structure (SMILES) | remaining activity [%]
COc1cc2ncnc(Nc3ccc(O)c(Br)c3)c2cc1OC | 97.8
O=C(Nc1cccc(Nc2nccc(Nc3cccc(C(F)(F)F)c3)n2)c1)C1CC1 | 107
O=C1C(Cl)=C(N2C(=O)CCC2=O)C(=O)c2ccccc21 | 99.1
Cc1cn(-c2cc(NC(=O)c3ccc(C)c(Nc4nccc(-c5cccnc5)n4)c3)cc(C(F)(F)F)c2)cn1 | 102
CCN(CC)C(=O)c1ccc(Nc2nc(OCC3CCCCC3)c3[nH]cnc3n2)cc1 | 91.9
C[C@@H]1CCN(C(=O)CC#N)C[C@@H]1N(C)c1ncnc2[nH]ccc12 | 102
N#C/C(=C\c1ccc(O)c(O)c1)C(=O)NCc1ccccc1 | 102
COc1cc2c(cc1OC)-c1[nH]nc(Nc3cccc(F)c3)c1C2 | 90.3
COc1cc2ncnc(Nc3cccc(Cl)c3)c2cc1OC | 90.7
CCOc1nc(NC(=O)Cc2cc(OC)ccc2OC)cc(N)c1C#N | 98.5
O=C(NC(NC(=S)Nc1ccc(F)c([N+](=O)[O-])c1)C(Cl)(Cl)Cl)C(c1ccccc1)c1ccccc1 (stereo not shown) | 99.8
Cc1nc2cc3nc(-c4cccs4)cnc3cc2n1C | 99.9
Cn1nc2c3c(cccc31)C(=O)c1ccccc1-2 | 94.1
O=C1c2ccccc2-c2n[nH]c3cccc1c23 | 71.6
c1ccc(-c2cnc(Nc3ccc(OCCN4CCCC4)cc3)s2)cc1 | 94.2
CN(C)C[C@H]1CCn2c(c(C3=C(c4cn(C)c5ccccc45)C(=O)NC3=O)c3ccccc32)C1 | 88.7
CN([C@@H](Cc1ccc(OS(=O)(=O)c2cccc3cnccc23)cc1)C(=O)N1CCN(c2ccccc2)CC1)S(=O)(=O)c1cccc2cnccc12 | 102
Nc1cccc(-c2cc3c(Oc4cccc(O)c4)ncnc3[nH]2)c1 | 103
N#Cc1c(NC(=O)c2cccc3ccccc23)sc2c1CCCC2 | 96.7
Ic1cccc(CSc2nnc(-c3ccncc3)o2)c1 | 96.4
Cc1cc2ncc(-c3ccccc3)nc2cc1C | 89.9
c1ccc(-c2[nH]ncc2-c2ccnc3ccccc23)nc1 | 90.9

Mixed results
SMILES | tested on | test | conditions | how to read | endpoint | result
CC(=O)Nc1nc(CN2CCC[C@H](Cc3cc(C)nc(C)c3)C2)cs1 | HTR5A (Homo sapiens, UniProt P47898) | ligand displacement | 10 µM | – | inhibition | 17.8%
Cn1cncc1[C@@](O)(COc1ccc(C#N)cc1-c1ccc(OC(F)(F)F)cc1)c1ccc(C#N)cc1 | HEK293T | high-content imaging | 10 µM, 12 h | – | cells with high Hoechst intensity | 14.3% and 6.3%
Cc1cc(-n2nc(Cc3cc(F)cc(C(F)(F)F)c3)nc2C)ccc1C(N)=O | HTR2B (Homo sapiens, UniProt P41595) | binding, radioligand binding | 10 µM | – | inhibition | -2.51%
CCC(=NO)C(C)=Cc1ccc(F)c(C)c1 | ABL1 (Homo sapiens, UniProt P00519, F317I) | KINOMEscan | 1 µM, F317I mutant, phosphorylated | reference: control | remaining binding | 100%
